Assay results of several laboratories.
Each line is one published result; not all experiments were run side by side. Numbers after ± are the reported error.
CYP27A1: Sterol 26-hydroxylase, mitochondrial (CYP27A1, Homo sapiens, UniProt Q02318)
Chain of UniProt Q02318 (whole entry, looked up): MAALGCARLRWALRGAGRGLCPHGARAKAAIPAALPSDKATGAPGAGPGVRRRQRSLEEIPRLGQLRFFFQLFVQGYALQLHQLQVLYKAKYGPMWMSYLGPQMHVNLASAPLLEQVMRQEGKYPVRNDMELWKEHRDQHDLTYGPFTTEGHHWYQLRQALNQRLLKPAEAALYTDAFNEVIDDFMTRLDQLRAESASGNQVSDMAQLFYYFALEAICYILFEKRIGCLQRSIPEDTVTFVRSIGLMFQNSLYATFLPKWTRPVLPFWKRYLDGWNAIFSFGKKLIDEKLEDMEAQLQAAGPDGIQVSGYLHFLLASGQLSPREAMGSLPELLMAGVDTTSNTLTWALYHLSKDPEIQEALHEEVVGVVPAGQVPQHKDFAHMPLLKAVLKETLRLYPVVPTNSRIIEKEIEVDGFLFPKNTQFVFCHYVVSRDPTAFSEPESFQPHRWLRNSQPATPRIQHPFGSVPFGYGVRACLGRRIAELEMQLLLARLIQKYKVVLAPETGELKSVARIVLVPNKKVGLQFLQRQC
Peptidyl-prolyl cis-trans isomerase A: Peptidyl-prolyl cis-trans isomerase A (Rattus norvegicus, UniProt P10111)
Chain of UniProt P10111 (whole entry, looked up): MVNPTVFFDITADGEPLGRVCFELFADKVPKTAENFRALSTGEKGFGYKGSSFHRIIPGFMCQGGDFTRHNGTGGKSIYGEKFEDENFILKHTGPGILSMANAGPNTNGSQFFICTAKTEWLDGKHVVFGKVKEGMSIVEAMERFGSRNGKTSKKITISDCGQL
Chain of UniProt P08253 (whole entry, looked up): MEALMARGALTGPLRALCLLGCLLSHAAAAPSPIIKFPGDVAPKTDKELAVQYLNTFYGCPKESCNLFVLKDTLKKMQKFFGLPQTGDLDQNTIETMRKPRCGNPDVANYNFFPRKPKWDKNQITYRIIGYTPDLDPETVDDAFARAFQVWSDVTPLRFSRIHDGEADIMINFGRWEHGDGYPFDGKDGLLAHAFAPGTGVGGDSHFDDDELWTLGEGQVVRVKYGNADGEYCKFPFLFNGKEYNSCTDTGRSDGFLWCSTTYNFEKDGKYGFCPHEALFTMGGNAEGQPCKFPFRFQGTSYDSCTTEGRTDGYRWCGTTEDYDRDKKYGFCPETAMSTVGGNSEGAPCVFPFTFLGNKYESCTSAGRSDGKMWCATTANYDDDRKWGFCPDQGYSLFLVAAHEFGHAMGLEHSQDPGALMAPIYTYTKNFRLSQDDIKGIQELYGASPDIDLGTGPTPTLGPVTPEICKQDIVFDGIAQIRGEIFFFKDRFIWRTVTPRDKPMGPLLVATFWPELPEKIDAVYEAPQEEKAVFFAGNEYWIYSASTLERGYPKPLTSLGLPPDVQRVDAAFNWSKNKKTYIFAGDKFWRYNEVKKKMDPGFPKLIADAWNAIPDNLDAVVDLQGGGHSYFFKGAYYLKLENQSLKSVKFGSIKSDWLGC
Chain of UniProt Q8VHW5 (whole entry, looked up): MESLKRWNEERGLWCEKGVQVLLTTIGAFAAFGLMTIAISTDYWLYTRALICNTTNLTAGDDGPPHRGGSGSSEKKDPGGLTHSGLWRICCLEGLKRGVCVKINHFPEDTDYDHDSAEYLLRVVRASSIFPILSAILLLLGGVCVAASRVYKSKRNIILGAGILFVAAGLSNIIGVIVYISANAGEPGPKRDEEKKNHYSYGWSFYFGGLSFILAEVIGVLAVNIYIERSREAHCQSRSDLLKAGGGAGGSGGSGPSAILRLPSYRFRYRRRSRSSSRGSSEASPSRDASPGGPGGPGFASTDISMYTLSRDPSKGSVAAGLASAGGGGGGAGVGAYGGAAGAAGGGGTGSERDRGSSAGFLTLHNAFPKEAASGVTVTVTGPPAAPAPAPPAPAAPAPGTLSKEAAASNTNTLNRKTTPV
Chain of UniProt P16257 (whole entry, looked up): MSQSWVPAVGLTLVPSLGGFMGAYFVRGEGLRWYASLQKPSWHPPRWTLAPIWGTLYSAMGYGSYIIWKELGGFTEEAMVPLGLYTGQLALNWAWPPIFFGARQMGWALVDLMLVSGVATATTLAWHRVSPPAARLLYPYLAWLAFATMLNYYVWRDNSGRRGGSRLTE
Chain of UniProt P10635 (whole entry, looked up): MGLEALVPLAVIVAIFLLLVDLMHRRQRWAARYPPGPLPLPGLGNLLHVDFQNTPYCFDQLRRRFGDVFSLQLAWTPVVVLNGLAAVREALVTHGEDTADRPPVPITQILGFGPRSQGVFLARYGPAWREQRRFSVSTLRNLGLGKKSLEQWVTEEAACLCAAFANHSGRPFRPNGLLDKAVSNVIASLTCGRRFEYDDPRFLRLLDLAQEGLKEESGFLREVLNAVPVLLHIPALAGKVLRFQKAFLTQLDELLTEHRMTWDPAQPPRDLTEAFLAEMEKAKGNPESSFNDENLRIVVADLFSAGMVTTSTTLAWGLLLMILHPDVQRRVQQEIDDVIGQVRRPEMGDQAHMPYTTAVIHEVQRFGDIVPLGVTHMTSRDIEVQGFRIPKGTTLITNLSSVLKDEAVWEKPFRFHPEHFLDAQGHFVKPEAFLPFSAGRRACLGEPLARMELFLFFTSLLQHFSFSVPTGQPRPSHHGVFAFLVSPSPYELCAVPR
Chain of UniProt P20813 (whole entry, looked up): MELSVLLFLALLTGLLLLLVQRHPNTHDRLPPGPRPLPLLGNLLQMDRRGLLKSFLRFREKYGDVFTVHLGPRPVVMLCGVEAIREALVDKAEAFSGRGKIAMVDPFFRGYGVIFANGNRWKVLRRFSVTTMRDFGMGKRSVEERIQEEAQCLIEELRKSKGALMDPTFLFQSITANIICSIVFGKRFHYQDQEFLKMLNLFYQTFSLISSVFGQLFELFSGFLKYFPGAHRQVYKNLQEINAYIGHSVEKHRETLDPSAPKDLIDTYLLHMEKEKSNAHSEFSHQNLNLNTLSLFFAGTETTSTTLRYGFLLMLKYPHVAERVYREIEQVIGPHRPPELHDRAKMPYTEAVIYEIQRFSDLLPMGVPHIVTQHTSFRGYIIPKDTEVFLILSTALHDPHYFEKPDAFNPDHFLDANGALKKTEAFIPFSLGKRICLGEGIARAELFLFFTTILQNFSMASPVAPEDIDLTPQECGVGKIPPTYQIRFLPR
Chain of UniProt Q12809 (whole entry, looked up): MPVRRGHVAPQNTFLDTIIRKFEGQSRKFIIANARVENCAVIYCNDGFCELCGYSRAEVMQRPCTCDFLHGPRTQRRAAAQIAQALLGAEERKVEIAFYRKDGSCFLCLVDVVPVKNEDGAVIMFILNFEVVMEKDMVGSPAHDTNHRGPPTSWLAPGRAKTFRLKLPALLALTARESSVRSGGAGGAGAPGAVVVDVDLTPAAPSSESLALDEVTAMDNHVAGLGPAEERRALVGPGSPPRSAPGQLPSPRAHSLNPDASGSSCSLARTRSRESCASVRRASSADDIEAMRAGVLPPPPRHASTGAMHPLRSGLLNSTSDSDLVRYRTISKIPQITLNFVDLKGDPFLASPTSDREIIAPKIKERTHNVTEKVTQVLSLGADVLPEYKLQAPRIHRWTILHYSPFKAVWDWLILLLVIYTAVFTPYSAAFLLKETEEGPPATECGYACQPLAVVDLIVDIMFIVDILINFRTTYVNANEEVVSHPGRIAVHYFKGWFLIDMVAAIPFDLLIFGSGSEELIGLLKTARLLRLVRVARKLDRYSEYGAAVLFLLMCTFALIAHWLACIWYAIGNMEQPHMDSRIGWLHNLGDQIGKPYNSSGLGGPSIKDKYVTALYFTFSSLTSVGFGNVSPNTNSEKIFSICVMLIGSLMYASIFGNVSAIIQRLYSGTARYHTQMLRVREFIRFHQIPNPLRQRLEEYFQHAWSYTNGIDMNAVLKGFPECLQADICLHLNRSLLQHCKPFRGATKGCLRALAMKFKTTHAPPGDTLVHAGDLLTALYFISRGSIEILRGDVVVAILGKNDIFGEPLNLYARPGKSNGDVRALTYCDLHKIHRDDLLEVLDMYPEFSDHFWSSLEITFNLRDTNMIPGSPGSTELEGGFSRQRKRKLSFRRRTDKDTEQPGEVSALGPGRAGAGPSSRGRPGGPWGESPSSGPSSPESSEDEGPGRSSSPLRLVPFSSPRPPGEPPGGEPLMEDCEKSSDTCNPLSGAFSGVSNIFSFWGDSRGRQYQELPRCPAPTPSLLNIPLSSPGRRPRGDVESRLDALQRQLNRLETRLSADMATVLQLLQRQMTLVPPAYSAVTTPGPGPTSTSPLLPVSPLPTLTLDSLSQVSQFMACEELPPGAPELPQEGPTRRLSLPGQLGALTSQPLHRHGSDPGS
Chain of UniProt P11980 (whole entry, looked up): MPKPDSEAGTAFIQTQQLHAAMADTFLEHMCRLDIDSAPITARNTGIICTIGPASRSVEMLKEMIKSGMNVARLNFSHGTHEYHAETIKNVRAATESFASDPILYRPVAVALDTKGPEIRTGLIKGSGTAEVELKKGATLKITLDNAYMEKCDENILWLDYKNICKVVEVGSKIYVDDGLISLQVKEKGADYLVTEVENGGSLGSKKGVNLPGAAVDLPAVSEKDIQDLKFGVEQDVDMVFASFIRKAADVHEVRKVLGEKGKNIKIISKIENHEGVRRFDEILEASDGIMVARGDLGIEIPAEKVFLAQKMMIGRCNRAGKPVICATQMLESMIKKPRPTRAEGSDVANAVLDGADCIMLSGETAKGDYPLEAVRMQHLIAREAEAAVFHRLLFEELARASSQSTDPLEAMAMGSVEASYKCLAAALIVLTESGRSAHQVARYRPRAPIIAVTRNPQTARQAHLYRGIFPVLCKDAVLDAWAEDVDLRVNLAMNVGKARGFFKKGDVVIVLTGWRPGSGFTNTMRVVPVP
Chain of UniProt Q9CPV9 (whole entry, looked up): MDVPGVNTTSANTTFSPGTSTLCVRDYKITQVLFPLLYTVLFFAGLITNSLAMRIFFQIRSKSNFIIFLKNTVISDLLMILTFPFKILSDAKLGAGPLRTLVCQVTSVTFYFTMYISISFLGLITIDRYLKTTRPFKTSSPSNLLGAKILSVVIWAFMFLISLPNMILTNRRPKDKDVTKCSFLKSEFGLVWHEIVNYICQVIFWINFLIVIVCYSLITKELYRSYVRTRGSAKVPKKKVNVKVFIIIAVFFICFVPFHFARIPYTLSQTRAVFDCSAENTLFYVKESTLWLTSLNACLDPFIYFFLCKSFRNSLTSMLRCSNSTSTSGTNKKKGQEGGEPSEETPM

Structure (SMILES)	target	assay	system	setting	measurement	result
CCc1nc(N)nc(N)c1C#C[C@H](C)c1cc(-c2ccncc2)ccc1OC	Cytochrome P450 2D6 (CYP2D6, Homo sapiens, UniProt P10635)	enzyme activity, inhibitor, fluorescence	–	–	IC50	1.6 µM
N#Cc1cc(C(=O)OCC[18F])c(C(F)(F)F)nc1N1CCN(C(=O)Cc2ccccc2)CC1	P2Y purinoceptor 12 (P2ry12, Mus musculus, UniProt Q9CPV9)	PET	aged mouse, 40 weeks, brain	11.1 MBq, 60 min	SUV	0.52 ± 0.04
COc1cc(-c2nc3ccccc3s2)cc(CN(Cc2ccccn2)Cc2ccccn2)c1O	Cu2+	UV-vis pH titration	–	M2+ + HL = [MHL]+ complex	log K	3.99
C=C1CCC(O)CC1=CC=C1CCCC2(C)C1CCC2C(C)(O)CCCCCC (stereo not drawn)	CYP27A1	substrate	–	50 µM, 3 h, 0.45% cyclodextrin, 1 µM enzyme	number of products	5
Cc1ccc(O)c2c3c(nn12)CCC(C)(NC(=O)c1ccc(-n2cnc4cc(C(=O)O)ccc42)cc1Cl)C3 (stereo not drawn)	factor IXa rat	–	rat	prolonged cuticle bleeding time	enzyme occupancy	> 85%
Cc1cn(CC(=O)N[C@H](C(=O)N[C@H](C(=O)N2CCC[C@H]2C(=O)N[C@H](C(=O)O)C(C)C)[C@@H](C)O)[C@@H](C)O)c(=O)[nH]c1=O	proteinase K	substrate, LC-MS	HEPES buffer	24 h, 37 °C, initial 0.2 mg/mL, with: proteinase K 3.2 U/mL	remaining compound	100.1 ± 0.6%
COC(=O)CC[C@@H](NC(=O)[C@@H](Cc1ccc(OP(=O)(O)O)cc1)NC(=O)[C@@H](Cc1ccccc1)NC(=O)[C@@H](Cc1ccccc1)NC(=O)Cc1ccc2ccccc2c1)C(=O)OC	carboxylesterase	substrate	HS5	200 µM, 24 h	ester hydrolysis	9.7%
CCc1cc(C)n2nc(-c3ccc(OCC[18F])cc3)c(CC(=O)N(CC)CC)c2n1	Translocator protein (Tspo, Rattus norvegicus, UniProt P16257)	Logan plot analysis	rat C6 glioma model, brain	dose not given, 60 min dynamic PET	total distribution volume	3.53 ± 1.27 mL/cm3
C/C=C/C[C@@H](C)[C@@H](O)[C@H]1C(=O)N[C@@H](CC)C(=O)N(C)C(Cc2ccc(C(=O)NCCCCCCNC(=O)c3ccc(-c4c5ccc(=[N+](C)C)cc-5oc5cc(N(C)C)ccc45)cc3)cc2)C(=O)N(C)[C@@H](CC(C)C)C(=O)N[C@@H](C(C)C)C(=O)N(C)[C@@H](CC(C)C)C(=O)N[C@@H](C)C(=O)N[C@H](C)C(=O)N(C)[C@@H](CC(C)C)C(=O)N(C)[C@@H](CC(C)C)C(=O)N(C)[C@@H](C(C)C)C(=O)N1C (stereo partly drawn)	Peptidyl-prolyl cis-trans isomerase A	–	parallel incubation with rat mitochondria	concentration not given, at IC50 for pore opening	inhibition	21 ± 6%
[64Cu+2].c1ccc(CNCc2ccc(CN3CCCN4CCNCCCN(CC4)CC3)cc2)nc1	CXCR4	–	NOD/SCID mouse, U87 and U87-stb-CXCR4 xenografts, spleen	iv, 90 min, no blocking dose, ex vivo	tissue uptake	11.6 ± 0.86 %ID/g
C=CC(=O)Nc1cc(Nc2nccc(-c3cn(C)c4ccccc34)n2)c(OCC(F)(F)F)nc1N(C)CCN(C)C	Cytochrome P450 2B6 (CYP2B6, Homo sapiens, UniProt P20813)	enzyme activity, inhibitor	human, liver microsomes	0.33 µM	activity vs control	97.5%
Cc1cccc(Cn2ncc3c4cc(F)c(CN(C)C)cc4n(C)c3c2=O)n1	Pyruvate kinase PKM (Rattus norvegicus, UniProt P11980)	enzyme activity, activator	rat, retina	intravitreal, 1 µM vitreous concentration	half-life of fast phase	67.2 h
CNC(=O)c1ccc(N2CCN(Cc3ccc4nc(C)c(=O)[nH]c4c3F)CC2)c([18F])n1	Poly [ADP-ribose] polymerase 1 (Macaca mulatta, UniProt H9FQ77)	PET	male rhesus monkeys, caudate nucleus	intravenous, dose not given, baseline	radioactivity uptake	0.88 SUV
COc1cc2c(CCNC(C)=O)c[nH]c2cc1OS(=O)(=O)O	Abcg2 (mouse)	–	FVB/N Abcg2-/- male mice, small intestinal content	oral, 10 mg/kg melatonin, 1 h	concentration	1240 ± 230 ng/g
COc1cc(-c2nc3ccccc3s2)cc(CN(C)Cc2ccccn2)c1O	Cu2+	–	–	50 µM, pH 7.4, 1:1 metal:ligand	pCu	7.9
[64Cu+2].c1cnc(CNCc2ccc(CN3CCCN4CCNCCCN(CC4)CC3)cc2)nc1	CXCR4 (human)	–	NOD/SCID mice, U87 xenografts, U87 control tumour	450 min post-injection	tissue uptake	5.82 ± 1.32 %ID/g
CCC(=O)N(C)c1ccc(Cl)c(Cl)c1	Voltage-gated inwardly rectifying potassium channel KCNH2 (KCNH2, Homo sapiens, UniProt Q12809)	ion current, inhibitor, patch clamp	HEK293	0.5 µM	inhibition	2.11%
C/C=C/C[C@@H](C)[C@@H](O)[C@H]1C(=O)N[C@@H](CC)C(=O)N(C)C(Cc2ccc(C(=O)NCCCCCCNC(=O)CCCCC[P+](c3ccccc3)(c3ccccc3)c3ccccc3)cc2)C(=O)N(C)[C@@H](CC(C)C)C(=O)N[C@@H](C(C)C)C(=O)N(C)[C@@H](CC(C)C)C(=O)N[C@@H](C)C(=O)N[C@H](C)C(=O)N(C)[C@@H](CC(C)C)C(=O)N(C)[C@@H](CC(C)C)C(=O)N(C)[C@@H](C(C)C)C(=O)N1C (stereo partly drawn)	Peptidyl-prolyl cis-trans isomerase A	–	parallel incubation with rat mitochondria	concentration not given, at IC50 for pore opening	inhibition	9 ± 1%
[11CH3]c1ccc2nc(C3CCC3)n(-c3ccc4[nH]ncc4c3)c2n1	Voltage-dependent calcium channel gamma-8 subunit (Rattus norvegicus, UniProt Q8VHW5)	PET	Sprague-Dawley rat, hippocampus	2.5 min, baseline	maximum SUV	~0.7
CC(C)C[C@H](NC(=O)[C@@H]1CCCN1C(=O)[C@H](CCCNC(=N)N)NC(=O)CNC(=O)[C@H](CCCCNC(=O)CN1CCN(CC(=O)O)CCN(CC(=O)O)CCN(CC(=O)O)CC1)NC(=O)CC[C@@H]1NC(=O)[C@@H](Cc2ccccc2)NC(=O)[C@H](CC(=O)O)NC(=O)CNC(=O)[C@H](CCCNC(=N)N)NC1=O)C(=O)N[C@H](C(=O)N[C@@H](Cc1ccc(O)cc1)C(=O)O)C(C)C [copper-64 labelled]	72 kDa type IV collagenase (MMP2, Homo sapiens, UniProt P08253)	substrate, radio-HPLC	–	–	peptide cleavage	no effect
C=C1CCC(O)CC1=CC=C1CCCC2(C)C1CCC2C(C)(C)O (stereo not drawn)	CYP27A1	substrate	–	50 µM, 3 h, 0.45% cyclodextrin, 1 µM enzyme	number of products	0
